Measured values from different studies.
Protocols differ between the studies behind these lines. ± gives the spread as reported.
Organism: Acinetobacter baumannii

| Compound | test | test system | conditions | scale | MIC |
| --- | --- | --- | --- | --- | --- |
| CC(C)C[C@H](NC(=O)[C@H](Cc1ccc(O)cc1)NC(=O)[C@@H]1CCCN1C(=O)[C@H](CCCNC(=N)N)NC(=O)[C@@H]1CCCN1C(=O)[C@H](CCCCN)NC(=O)[C@H](CC(=O)O)NC(=O)[C@@H]1CCCN1C(=O)[C@H](CCCNC(=N)N)NC(=O)C1(N)CCCCC1)C(=O)N1CCC[C@H]1C(=O)N[C@@H](CCCNC(=N)N)C(=O)N1CCC[C@H]1C(=O)N[C@@H](CCCNC(=N)N)C(=O)N1CCC[C@H]1C(=O)N1CCC[C@H]1C(=O)N[C@@H](CCCNC(=N)N)C(=O)N1CCC[C@H]1C(=O)N[C@H](C(=O)N[C@@H](CCCNC(=N)N)C(=O)N[C@@H](CSCc1ccc(CSC[C@H](NC(=O)[C@H](CCCNC(=N)N)NC(=O)[C@@H](NC(=O)[C@@H]2CCCN2C(=O)[C@H](CCCNC(=N)N)NC(=O)[C@@H]2CCCN2C(=O)[C@@H]2CCCN2C(=O)[C@H](CCCNC(=N)N)NC(=O)[C@@H]2CCCN2C(=O)[C@H](CCCNC(=N)N)NC(=O)[C@@H]2CCCN2C(=O)[C@H](CC(C)C)NC(=O)[C@H](Cc2ccc(O)cc2)NC(=O)[C@@H]2CCCN2C(=O)[C@H](CCCNC(=N)N)NC(=O)[C@@H]2CCCN2C(=O)[C@H](CCCCN)NC(=O)[C@H](CC(=O)O)NC(=O)[C@@H]2CCCN2C(=O)[C@H](CCCNC(=N)N)NC(=O)C2(N)CCCCC2)C(C)C)C(=O)NN)cc1)C(=O)NN)C(C)C | bacterial growth | ATCC 19606, 100% Mueller-Hinton broth | 90 min, 37 °C, strain ATCC 19606 |  | 13.1 ± 0.7 µg/mL |
| CC[C@H](C)[C@H](NC(=O)[C@H](CCCCNC(=N)N)NC(=O)[C@H](CC(N)=O)NC(=O)[C@H](CC(C)C)NC(=O)[C@H](Cc1ccccc1)NC(=O)[C@H](CCCCNC(=N)N)NC(=O)[C@H](CCCCNC(=N)N)NC(=O)[C@H](CC(C)C)NC(=O)[C@H](CC(C)C)NC(=O)[C@H](CCCCNC(=N)N)NC(=O)[C@H](CCCCNC(=N)N)NC(=O)[C@H](CC(C)C)NC(=O)CNC(C)=O)C(=O)N[C@@H](CCCCNC(=N)N)C(=O)N[C@@H](CCCCNC(=N)N)C(N)=O | bacterial growth, broth microdilution | multidrug-resistant |  |  | 6.25 µM |
| CC(C)C[C@@H]1NC(=O)[C@@H](Cc2ccccc2)NC(=O)[C@H](CCN)NC(=O)[C@@H](NC(=O)[C@H](CN)NC(=O)[C@@H](NC(=O)CC(CN)Cc2ccccc2)[C@@H](C)O)CCNC(=O)[C@H]([C@@H](C)O)NC(=O)[C@H](CCN)NC(=O)[C@H](CCN)NC1=O (stereo partly shown) | broth microdilution | ATCC 19003, cation-adjusted Mueller-Hinton broth |  |  | 2 µg/mL |
| O=C(NCCNCCO)c1cn(Cc2ccccc2)c2cc(OCc3ccc(C(F)(F)F)cc3)c(Cl)cc2c1=O |  | ATCC 19606 |  | ≥80% growth inhibition | > 32 µg/mL |
| CC(C)[C@@H]1NC(=O)[C@@H]2CCCN2C(=O)[C@@H](C)NC(=O)[C@H](CO)NC(=O)[C@H](C)NC(=O)[C@H](C(C)(C)C)NC(=O)[C@H](CCO)NC(=O)[C@H](Cc2c[nH]c3ccccc23)NC(=O)[C@H](CCO)NC(=O)[C@@H](CCN)NC(=O)[C@H](CCC(N)=O)NC(=O)[C@H](CCN)NC(=O)[C@H](Cc2ccc(O)cc2)NC(=O)[C@H]([C@@H](C)O)NC1=O | broth microdilution | ATCC 9955, CAMHB with polysorbate-80 | 16 h |  | > 64 µg/mL |
| CC[C@@H](C)[C@@H](NC(=O)[C@@H](C)NC(=O)[C@H](NC(=O)[C@@H](CC(=O)O)NC(=O)[C@@H](CCCCN)NC(=O)[C@@H](CO)NC(=O)[C@H](NC(=O)[C@@H](CC(N)=O)NC(=O)[C@@H](C)NC(=O)[C@H](NC(=O)[C@@H](CCC(=O)O)NC(=O)[C@@H](CCCCN)NC(=O)[C@H](NC(=O)[C@H](NC(=O)[C@@H](Cc1c[nH]cn1)NC(=O)[C@@H](CCCCN)NC(=O)[C@H](NC(=O)[C@@H](CCCCN)NC(=O)[C@@H](CCCCN)NC(=O)[C@H](NC(=O)[C@@H](CC(C)C)NC(=O)[C@@H](CCCCN)NC(=O)[C@@H](CC(N)=O)NC(=O)[C@@H](Cc1ccccc1)NC(=O)[C@@H](CCCNC(=N)N)NC(=O)[C@@H](CCCCN)NC(=O)[C@@H](CCCNC(=N)N)NC(=O)[C@@H](Cc1ccccc1)NC(=O)CN)C(C)C)C(C)C)[C@H](C)O)[C@H](C)CC)[C@H](C)O)C(C)C)C(C)C)C(=O)N[C@@H](C(=O)N[C@H](C)C(=O)NCC(=O)N[C@H](CO)C(=O)NCC(=O)N[C@@H](C(=O)N[C@H](C)C(=O)N[C@@H](C(=O)NCC(=O)N[C@H](C)C(=O)N[C@H](C)C(=O)N[C@H](CCSC)C(N)=O)C(C)C)C(C)C)C(C)C |  | isolate RKI 19/09, CAMHB |  |  | 32 µg/mL |
| CC[C@H](C)[C@@H]1NC(=O)[C@@H](CC(C)C)NC(=O)[C@H](CCN)NC(=O)[C@@H](NC(=O)[C@@H](CO)NC(=O)[C@@H](NC(=O)[C@H](CCN)NC(=O)c2ccc(-c3ccccc3)cc2)[C@@H](C)O)CCNC(=O)[C@H](CC(C)C)NC(=O)[C@H](CCN)NC(=O)[C@H](CCN)NC1=O |  | 0301, mcr-1 transformed |  |  | < 2 µg/mL |
| CC[C@H](C)[C@H](NC(=O)[C@@H](CCCNC(=N)N)NC(=O)[C@H](CCCNC(=N)N)NC(=O)[C@@H]1CCCN1C(=O)[C@@H]1CCCN1C(=O)[C@H](CCCNC(=N)N)NC(=O)[C@@H]1CCCN1C(=O)[C@H](CCCNC(=N)N)NC(=O)[C@@H]1CCCN1C(=O)[C@H](CC(C)C)NC(=O)[C@H](Cc1ccc(O)cc1)NC(=O)[C@@H]1CCCN1C(=O)[C@@H]1CCCN1C(=O)[C@H](CCCCN)NC(=O)[C@H](CCCNC(=N)N)NC(=O)[C@@H](N)C(C)C)C(=O)N[C@@H](Cc1ccc(O)cc1)C(=O)N[C@@H](CC(N)=O)C(=O)N[C@H](CCCNC(=N)N)C(N)=O | broth microdilution | DSM 30008 | 18 h |  | 8 µg/mL |
| CC[C@H](C)[C@H](NC(=O)[C@H](CCCNC(=N)N)NC(=O)[C@H](Cc1ccccc1)NC(=O)[C@H](CC(C)C)NC(=O)[C@H](CCCCN)NC(=O)[C@H](CO)NC(=O)[C@@H](NC(=O)[C@H](CC(C)C)NC(=O)[C@H](CCCCN)NC(=O)[C@H](C)NC(=O)[C@H](CC(N)=O)NC(=O)[C@H](CCCNC(=N)N)NC(=O)[C@H](Cc1ccc(O)cc1)NC(=O)[C@H](C)NC(=O)[C@@H](NC(=O)[C@H](CCCCN)NC(=O)[C@H](CC(N)=O)NC(=O)[C@H](CCCCN)NC(=O)[C@H](CC(C)C)NC(=O)[C@H](CO)NC(=O)[C@H](CC(C)C)NC(=O)[C@H](C)NC(=O)[C@H](C)NC(=O)[C@H](CO)NC(=O)[C@@H](NC(=O)[C@@H](NC(=O)[C@H](Cc1c[nH]c2ccccc12)NC(=O)[C@@H](NC(=O)[C@H](CO)NC(=O)[C@@H](NC(=O)[C@@H](N)CC(C)C)C(C)C)C(C)C)[C@@H](C)CC)[C@@H](C)CC)C(C)C)C(C)C)C(=O)N[C@@H](C)C(=O)N[C@@H](CC(C)C)C(=O)O | broth microdilution | ATCC 19606 | 24 h, 37 °C |  | 8 µg/mL |
| C[C@@H](N)[C@H](O)CCCCCCCC(=O)CCCCCCCCCCCCCC[C@@H](O[C@@H]1O[C@H](CO)[C@@H](O)[C@H](O)[C@H]1O)[C@@H](N)CO | microbial growth, resazurin | ATCC19606 | 6 h |  | 31.6 µM |

Some of these lines once more:
| Compound | test | test system | conditions | scale | MIC |
| --- | --- | --- | --- | --- | --- |
| CC(C)C[C@H](NC(=O)[C@H](Cc1ccc(O)cc1)NC(=O)[C@@H]1CCCN1C(=O)[C@H](CCCNC(=N)N)NC(=O)[C@@H]1CCCN1C(=O)[C@H](CCCCN)NC(=O)[C@H](CC(=O)O)NC(=O)[C@@H]1CCCN1C(=O)[C@H](CCCNC(=N)N)NC(=O)C1(N)CCCCC1)C(=O)N1CCC[C@H]1C(=O)N[C@@H](CCCNC(=N)N)C(=O)N1CCC[C@H]1C(=O)N[C@@H](CCCNC(=N)N)C(=O)N1CCC[C@H]1C(=O)N1CCC[C@H]1C(=O)N[C@@H](CCCNC(=N)N)C(=O)N1CCC[C@H]1C(=O)N[C@H](C(=O)N[C@@H](CCCNC(=N)N)C(=O)N[C@@H](CSCc1ccc(CSC[C@H](NC(=O)[C@H](CCCNC(=N)N)NC(=O)[C@@H](NC(=O)[C@@H]2CCCN2C(=O)[C@H](CCCNC(=N)N)NC(=O)[C@@H]2CCCN2C(=O)[C@@H]2CCCN2C(=O)[C@H](CCCNC(=N)N)NC(=O)[C@@H]2CCCN2C(=O)[C@H](CCCNC(=N)N)NC(=O)[C@@H]2CCCN2C(=O)[C@H](CC(C)C)NC(=O)[C@H](Cc2ccc(O)cc2)NC(=O)[C@@H]2CCCN2C(=O)[C@H](CCCNC(=N)N)NC(=O)[C@@H]2CCCN2C(=O)[C@H](CCCCN)NC(=O)[C@H](CC(=O)O)NC(=O)[C@@H]2CCCN2C(=O)[C@H](CCCNC(=N)N)NC(=O)C2(N)CCCCC2)C(C)C)C(=O)NN)cc1)C(=O)NN)C(C)C | bacterial growth | ATCC 19606, 100% Mueller-Hinton broth | 90 min, 37 °C, strain ATCC 19606 |  | 13.1 ± 0.7 µg/mL |
